Assay results pooled from the literature.
Every numbered part comes from another study and shows a few of its results, in no order. Substitutions count along the parent as printed.

Study 1
Target: UBE2E1 UBC core domain (UniProt P51965)
Chain of UniProt P51965 (whole entry, looked up): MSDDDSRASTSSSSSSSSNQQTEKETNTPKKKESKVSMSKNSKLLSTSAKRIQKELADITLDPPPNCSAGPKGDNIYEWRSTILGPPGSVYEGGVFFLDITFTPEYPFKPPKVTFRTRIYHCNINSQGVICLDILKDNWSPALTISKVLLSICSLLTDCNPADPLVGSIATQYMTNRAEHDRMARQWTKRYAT
Method: yeast two-hybrid
Matrix: yeast
Setting: mostly zero background
Reference: not given
Direction: higher = stronger interaction
B1: HLTF RING domain (UniProt Q14527); chain LILSSGSDEECAICLDSLTVPVITHCAHVFCKPCICQVIQNEQPHAKCPLCRNDIHEDNLLE
B2: MARCHF1 RING domain (UniProt Q8TCQ1); chain TAPRSQSRLSVCPSTQDICRICHCEGDEESPLITPCRCTGTLRFVHQSCLHQWIKSSDTRCCELCKYDFIMETKLKPLRKWE
B3: BFAR RING domain (UniProt Q9NZS9); chain GPQISVSEFSCHCCYDILVNPTTLNCGHSFCRHCLALWWASSKKTECPECREKWEGFPKVS
B4: RNF182 RING domain (UniProt Q8N6D2); chain AESQASDELECKICYNRYNLKQRKPKVLECCHRVCAKCLYKIIDFGDSPQGVIVCPFCRFETCLPDDEV
B5: VPS8 RING domain (UniProt Q8N3P4); chain TRGLNPKQDYCSICLQQYKRRQEMADEIIVFSCGHLYHSFCLQNKECTVEFEGQTRWTCYKCSSSNKVGKLSE
B6: RNF186 RING domain (UniProt Q9NXI6); chain HSGSTECDLECLVCREPYSCPRLPKLLACQHAFCAICLKLLLCVQDNTWSITCPLCRKVTAVPGGLI
B7: TRIM11 RING domain (UniProt Q96F44); chain LSTNLQEEATCAICLDYFTDPVMTDCGHNFCRECIRRCWGQPEGPYACPECRELSPQRNLRP
B8: MKRN3 RING domain (UniProt Q13064); chain FAVQRGMDKVCGICMEVVYEKANPNDRRFGILSNCNHSFCIRCIRRWRSARQFENRIVKSCPQCRVTSELVIPSE
B9: ZMYND11 RING domain (UniProt Q15326); chain DEIDWETENHDWYCFECHLPGEVLICDLCFRVYHSKCLSDEFRLRDSSSPWQCPVCRSIKKKNTNKQEM
Sequence	lacZ reporter activity
B1 (HLTF RING domain)	0
EIKEYKARLTCPCCNTRKKDAVLTKCFHVFCFECVRGRYEARQRKCPKCNAAFGAHDFHR (RNF40 RING domain (UniProt O75150))	0
B2 (MARCHF1 RING domain)	0
ASEEEFQFLRCQQCQAEAKCPKLLPCLHTLCSGCLEASGMQCPICQAPWPLGADTP (PML RING domain (UniProt P29590))	0
LVKDFNPYITCYICKGYLIKPTTVTECLHTFCKTCIVQHFEDSNDCPRCGNQVHETNPLE (PCGF5 RING domain (UniProt Q86SE9))	0
LEALSSDFLACKICLEQLRAPKTLPCLHTYCQDCLAQLADGGRVRCPECRETVPVPPEGV (TRIM56 RING domain (UniProt Q9BRZ2))	0
B3 (BFAR RING domain)	0
FDPPLESKYECPICLMALREAVQTPCGHRFCKACIIKSIRDAGHKCPVDNEILLENQLFP (TRAF6 RING domain (UniProt Q9Y4K3))	0
B4 (RNF182 RING domain)	0
B5 (VPS8 RING domain)	0
B6 (RNF186 RING domain)	0
B7 (TRIM11 RING domain)	0
B8 (MKRN3 RING domain)	0
B9 (ZMYND11 RING domain)	0

Study 2
Target: CCNA1, cyclin fold, Cln2 fusion (human)
Method: yeast growth competition, sequencing
Matrix: yeast
Setting: weak parent motif
Reference: not given
Direction: higher = stronger binding
Starting sequence: MASTL docking peptide (human); PMIAKNLMCELDE; partner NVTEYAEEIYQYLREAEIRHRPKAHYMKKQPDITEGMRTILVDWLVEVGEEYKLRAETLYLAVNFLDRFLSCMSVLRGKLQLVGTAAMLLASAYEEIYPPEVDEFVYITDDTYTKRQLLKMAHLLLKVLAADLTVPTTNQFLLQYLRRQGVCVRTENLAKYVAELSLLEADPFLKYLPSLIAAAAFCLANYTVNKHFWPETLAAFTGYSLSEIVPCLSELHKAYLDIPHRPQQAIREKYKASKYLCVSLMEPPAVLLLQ
Substitution	normalised enrichment score
PMIAKNWMCELDE [L7W]	-0.0249
PMIAKQLMCELDE [N6Q]	0.219
PAIAKNLMCELDE [M2A]	-0.328
PMIPKNLMCELDE [A4P]	0.344
PIIAKNLMCELDE [M2I]	-0.00463
PMWAKNLMCELDE [I3W]	0.145
PMIAKNLMCEGDE [L11G]	0.166
PMIAKNLMCESDE [L11S]	-0.0226
PMIAKGLMCELDE [N6G]	-0.0135
PMIHKNLMCELDE [A4H]	0.0849
PMDAKNLMCELDE [I3D]	0.0185
PMKAKNLMCELDE [I3K]	0.0868
PVIAKNLMCELDE [M2V]	-0.0809
PMIAKDLMCELDE [N6D]	0.264
PMIAKNLMCPLDE [E10P]	0.14

Study 3
Target: ABI1, truncated, D143A, DHFR fusion (Arabidopsis thaliana)
Method: DHFR PCA, deep sequencing
Matrix: yeast
Setting: methotrexate growth selection, single substitutions
Together with: (+)-ABA 17 µM
Reference: wild-type fitted maximum
Direction: higher = stronger binding
Starting sequence: PYL1, truncated, DHFR fusion (Arabidopsis thaliana); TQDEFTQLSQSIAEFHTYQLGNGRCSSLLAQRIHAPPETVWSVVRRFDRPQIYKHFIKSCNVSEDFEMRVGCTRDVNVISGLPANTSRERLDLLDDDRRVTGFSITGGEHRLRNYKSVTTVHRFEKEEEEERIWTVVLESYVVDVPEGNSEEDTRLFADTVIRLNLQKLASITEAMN
Substitution	relative binding score [%]
R46E	58
T173S	85.2
L28A	17.8
V43F	66.8
E147L	76.2
F124A	79.6
T6E	92.5
R49W	9.99
D96A	6.65
E67S	79.3
C60V	82
E152H	77.2

Study 4
Target: Ras GTPase-activating protein-binding protein 1, RRM domain (G3BP1, Homo sapiens, UniProt Q13283)
Chain of UniProt Q13283 (whole entry, looked up): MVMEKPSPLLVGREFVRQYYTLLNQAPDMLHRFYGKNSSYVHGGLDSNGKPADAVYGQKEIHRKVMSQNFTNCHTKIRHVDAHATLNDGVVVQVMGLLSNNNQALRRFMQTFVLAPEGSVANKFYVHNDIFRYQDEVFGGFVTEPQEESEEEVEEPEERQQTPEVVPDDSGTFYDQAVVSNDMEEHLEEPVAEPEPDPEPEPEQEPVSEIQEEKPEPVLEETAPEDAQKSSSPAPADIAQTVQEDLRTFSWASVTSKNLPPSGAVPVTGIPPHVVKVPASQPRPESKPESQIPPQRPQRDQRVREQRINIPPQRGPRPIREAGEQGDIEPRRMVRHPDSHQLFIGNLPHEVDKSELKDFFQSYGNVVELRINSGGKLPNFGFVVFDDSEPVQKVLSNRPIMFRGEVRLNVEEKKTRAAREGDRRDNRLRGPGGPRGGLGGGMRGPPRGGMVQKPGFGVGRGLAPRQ
Method: RNA Bind-n-Seq
Molecule type: RNA
Matrix: in vitro
Tested at: 1 µM
Setting: whole 134-nt RNA, ends assumed
Together with: 150 mM KCl
Reference: input library
Direction: higher = stronger binding
All sequences stand within: GGGAGUUCUACAGUCCGACGAUC … UGGAAUUCUCGGGUGUCAAGG
Sequence	log2 enrichment
UCAAGUCCUGUGCUACACAUCGUAUGUACCGAAUCGGGAAAGGGAAAGGGAGGGAAAGUAUUAUGUUACGCCGUUCGGAUCUGCACUUCC	0.895
CUCAAGUCCUGUGCUACACAUCGUAUGUACCGAAUCGGGAAGGAAGGAAGGGGAAAGUAUUAUGUUACGCCGUUCGGAUCUGCACUUCCA	-0.165
AGUCCUGUGCUACACAUCGUAUGUACCGAAUCGGGGAGGGGAAAAAGGGGUUUGGGGAAAGUAUUAUGUUACGCCGUUCGGAUCUGCACU	0.94
AAGUCCUGUGCUACACAUCGUAUGUACCGAAUCGGAAAAAAAGGAAAAAGGAAAGGAAAGUAUUAUGUUACGCCGUUCGGAUCUGCACUU	-0.0441
UCCUCAAGUCCUGUGCUACACAUCGUAUGUACCGAAUCGGAAAGGUGGUGGAAAGUAUUAUGUUACGCCGUUCGGAUCUGCACUUCCAGC	-0.179
CACAGACAACACGCACCCACACAGACACAGAUGGAAGGGGUUGGGAUGGGGACAGGGUGCACAGCAGGGCGGGGUAGGACCCCAGCCCCU	0.00369
UCCUGUGCUACACAUCGUAUGUACCGAAUCGGGAAAAAAAGGAAAAAAAGGAAAAAAAGGAAAGUAUUAUGUUACGCCGUUCGGAUCUGC	0.131
CAAGUCCUGUGCUACACAUCGUAUGUACCGAAUCGGUUUGGUUUUUGGAAAAAGGAAAGUAUUAUGUUACGCCGUUCGGAUCUGCACUUC	-0.125
UAACUUUAGAGGAGGAUCUGAUGGAUAUGGCAGUGGACGUGGACUUGGGGAUGGCUAUAAUGGGUAUGGAGGAGGACCUGGAGGUGGCAA	-0.683

Study 5
Target: Histone acetyltransferase KAT6A, winged helix 2, GST fusion (KAT6A, Homo sapiens, UniProt Q92794, residues 85-181)
Method: protein binding microarray
Molecule type: double-stranded DNA, one strand shown
Matrix: in vitro
Tested at: not given
Setting: 8-mer, flanks averaged, mean of 2 arrays, mostly near background
Reference: not given
Direction: higher = stronger binding
Target sequence (chain): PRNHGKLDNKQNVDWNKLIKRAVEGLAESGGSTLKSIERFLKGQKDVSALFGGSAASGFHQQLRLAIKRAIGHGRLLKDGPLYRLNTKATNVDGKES
Sequence	E-score
TCAACTAA	0.035
AGGTGGGG	0.0981
GTGAAGCA	0.102
CCTTGGGA	0.0743
ATCTACGC	0.162
AAAATGTT	-0.0975
AGACTTTA	-0.124
ATTCGGCA	0.0693
AATTAACG	-0.0392
ACGAGTTC	-0.00325
ATCGTTAG	-0.0483
CGTGGAAA	0.0312
CCTATTAG	-0.0225
AAGCACGA	0.152
AGACGTCT	-0.206
TCCGTGAA	0.068
AAAACCGC	0.0956
GTCGACTA	0.154
CAGGCAGG	-0.0552
ACTTCAAC	-0.0969
CACTGTCG	-0.114

Study 6
Target: BATF, bZIP domain (human)
Method: DHFR protein complementation
Matrix: yeast
Setting: single substitutions, most at no-binding floor
Reference: wild-type JUN-FOS pair
Direction: higher = stronger binding
Starting sequence: JUN, bZIP domain (human); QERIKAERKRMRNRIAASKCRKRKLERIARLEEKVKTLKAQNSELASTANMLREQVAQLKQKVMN; partner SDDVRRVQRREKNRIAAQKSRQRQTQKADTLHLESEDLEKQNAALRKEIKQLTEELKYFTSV
Substitution	binding fitness
S47E	0.135 natural log
Q41P	-1.25 natural log
K39F	-0.614 natural log
L31M	-0.0167 natural log
S47Q	0.0445 natural log
A57Q	-0.0636 natural log
S47C	-0.0044 natural log
N42E	-0.637 natural log
A40S	-0.032 natural log

Repeated from above (study 5):
Sequence	E-score
AGGTGGGG	0.0981
GTGAAGCA	0.102
CCTTGGGA	0.0743
ATCTACGC	0.162
AAAATGTT	-0.0975
AGACTTTA	-0.124
ATTCGGCA	0.0693
AATTAACG	-0.0392
ACGAGTTC	-0.00325
ATCGTTAG	-0.0483
CGTGGAAA	0.0312
CCTATTAG	-0.0225
AAGCACGA	0.152
AGACGTCT	-0.206
